Experimental data pooled from the literature.
“And” joins repeats or separate records; there may be more than shown. Numbers after ± are the reported error.

| SMILES | assay | test system | setting | scale | endpoint | result |
| --- | --- | --- | --- | --- | --- | --- |
| CCCCCCCCCCCCCCCC(=O)N[C@@H](CCC(=O)NCCOCCOCCC(=O)NCCOCCOCCC(=O)NCCCC[C@H](NC(=O)[C@H](CC(=O)O)NC(=O)[C@H](CC(C)C)NC(=O)[C@H](Cc1ccc(O)cc1)NC(=O)[C@H](CCCCN)NC(=O)[C@H](CO)NC(=O)[C@H](Cc1ccc(O)cc1)NC(=O)[C@H](CC(=O)O)NC(=O)[C@H](CO)NC(=O)[C@@H](NC(=O)[C@H](Cc1ccccc1)NC(=O)[C@@H](NC(=O)CNC(=O)[C@H](CCC(N)=O)NC(=O)[C@@H](CO)NC(=O)[C@@H](N)Cc1c[nH]cn1)[C@@H](C)O)[C@@H](C)O)C(=O)N[C@@H](CCCNC(=N)N)C(=O)N[C@@H](CCCNC(=N)N)C(=O)N[C@@H](C)C(=O)N[C@@H](CCC(N)=O)C(=O)N[C@@H](CC(=O)O)C(=O)N[C@@H](Cc1ccccc1)C(=O)N[C@H](C(=O)N[C@@H](CCC(N)=O)C(=O)N[C@@H](Cc1c[nH]c2ccccc12)C(=O)N[C@@H](CC(C)C)C(=O)N[C@@H](CC(C)C)C(=O)N[C@@H](CC(N)=O)C(=O)N[C@H](C(=O)NCC(=O)NCC(=O)N1CCC[C@H]1C(=O)N[C@@H](CO)C(=O)N[C@@H](CO)C(=O)NCC(=O)N[C@@H](C)C(=O)N1CCC[C@H]1C(=O)N1CCC[C@H]1C(=O)N1CCC[C@H]1C(=O)N[C@@H](CO)C(N)=O)[C@@H](C)O)C(C)C)C(=O)O | – | Sprague-Dawley rat, female | subcutaneous, 20 µg/kg once daily, 14 days | – | creatinine | 24.8 ± 1.9 µmol/L |
| CC(C)N1CCCCC1C(=O)NC(Cc1ccc(-c2ccccc2)cc1)B(O)O (centres unmarked) | – | SCID mouse, P. falciparum model, blood | oral, 25 mg/kg, 6 h | – | blood concentration | 15 ng/mL |
| C#Cc1c(F)ccc2cc(O)cc(-c3ncc4c(N5CC6CCC(C5)N6C(=O)OC(C)OC(=O)COCCOC)nc(OC[C@@]56CCCN5C[C@H](F)C6)nc4c3F)c12 (some centres unmarked) | chemical stability | simulated intestinal fluid | 1 µM, 30 min | – | compound remaining | 71.3% |
| O=c1cc(-c2ccc(O)cc2)oc2c([C@@H]3OC[C@H](O)[C@H](O)[C@H]3O)c(O)c([C@@H]3O[C@H](CO)[C@@H](O)[C@H](O)[C@H]3O)c(O)c12 | – | rat | ip, 150 mg/kg | – | AUC(0-inf) | 26000 ng·h/mL |
| CSc1nc2[nH]nc([N+](=O)[O-])c(=O)n2n1 | – | plasma | – | – | fraction unbound | 0.05 |
| CC1COC2=C1C(=O)C(=O)c1c2ccc2c1C(OC(=O)CNC(=O)CN)CCC2(C)C (mixture of isomers) | – | saline | 24 h, 25 °C | – | equilibrium solubility | 209 µg/mL |
| CSCC[C@H](N)C(=O)N[C@@H](C)C(=O)N[C@@H](CCCNC(=N)N)C(=O)N[C@@H](CCCNC(=N)N)C(=O)N[C@@H](CC(=O)O)C(=O)N[C@@H](CCCCN)C(=O)N[C@H](C(=O)N[C@@H](CC(=O)O)C(=O)N[C@@H](Cc1ccccc1)C(=O)N[C@@H](C)C(=O)N[C@@H](CCCNC(=N)N)C(=O)N[C@@H](CCCNC(=N)N)C(=O)N[C@@H](CCCNC(=N)N)C(=O)N[C@@H](CCCNC(=N)N)C(=O)NCCCCCC(=O)NCCCCC(NC(=O)CCCCCNC(=O)[C@H](CCCNC(=N)N)NC(=O)[C@H](CCCNC(=N)N)NC(=O)[C@H](CCCNC(=N)N)NC(=O)[C@H](CCCNC(=N)N)NC(=O)[C@H](C)NC(=O)[C@H](Cc1ccccc1)NC(=O)[C@H](CC(=O)O)NC(=O)[C@@H](NC(=O)[C@H](CCCCN)NC(=O)[C@H](CC(=O)O)NC(=O)[C@H](CCCNC(=N)N)NC(=O)[C@H](CCCNC(=N)N)NC(=O)[C@H](C)NC(=O)[C@@H](N)CCSC)[C@@H](C)O)C(=O)NCCCCC(NC(=O)C(CCCCNC(=O)CCCCCNC(=O)[C@H](CCCNC(=N)N)NC(=O)[C@H](CCCNC(=N)N)NC(=O)[C@H](CCCNC(=N)N)NC(=O)[C@H](CCCNC(=N)N)NC(=O)[C@H](C)NC(=O)[C@H](Cc1ccccc1)NC(=O)[C@H](CC(=O)O)NC(=O)[C@@H](NC(=O)[C@H](CCCCN)NC(=O)[C@H](CC(=O)O)NC(=O)[C@H](CCCNC(=N)N)NC(=O)[C@H](CCCNC(=N)N)NC(=O)[C@H](C)NC(=O)[C@@H](N)CCSC)[C@@H](C)O)NC(=O)CCCCCNC(=O)[C@H](CCCNC(=N)N)NC(=O)[C@H](CCCNC(=N)N)NC(=O)[C@H](CCCNC(=N)N)NC(=O)[C@H](CCCNC(=N)N)NC(=O)[C@H](C)NC(=O)[C@H](Cc1ccccc1)NC(=O)[C@H](CC(=O)O)NC(=O)[C@@H](NC(=O)[C@H](CCCCN)NC(=O)[C@H](CC(=O)O)NC(=O)[C@H](CCCNC(=N)N)NC(=O)[C@H](CCCNC(=N)N)NC(=O)[C@H](C)NC(=O)[C@@H](N)CCSC)[C@@H](C)O)C(N)=O)[C@@H](C)O (some centres unmarked) | – | C57BL/6 mouse female, pancreas | dose not given, 6 h | reference: total | mean tissue distribution | 0.94% |
| C[C@H](O)[C@@H](NC(=O)[C@H]1CCCN1C(=O)[C@@H](CCCCN)NC(=O)[C@@H](CO)NC(=O)[C@@H](Cc1ccc(O)cc1)NC(=O)[C@@H](CC(N)=O)NC(=O)CCOCCOCCOCCNC(=O)CN1CCN(CC(=O)O)CCN(CC(=O)O)CCN(CC(=O)O)CC1)C(=O)N[C@H](CC(=O)O)C(=O)N[C@H](CCCNC(=N)N)C(=O)N[C@H](CCC(N)=O)C(=O)N[C@H](Cc1ccc(O)cc1)C(=O)N[C@H](Cc1c[nH]cn1)C(=O)N[C@H](Cc1ccccc1)C(N)=O [copper-64 labelled] | – | C57BL/6J mice, muscle | intravenous, 1.85 MBq, 1 h, radiolabelled | – | tissue uptake | 0.23 ± 0.16 %ID/g |
| N=C(N)NCCC[C@@H](NC(=O)[C@H](N)Cc1c[nH]c2ccccc12)C(=O)N[C@H](CCCCN)C(=O)N[C@H](Cc1c[nH]c2ccccc12)C(=O)N[C@H](CCCNC(=N)N)C(=O)N[C@H](CCCCN)C(=O)N[C@H](Cc1c[nH]c2ccccc12)C(=O)N[C@H](CCCNC(=N)N)C(=O)N[C@H](CCCCN)C(=O)N[C@H](Cc1c[nH]c2ccccc12)C(=O)N[C@H](CCCNC(=N)N)C(=O)N[C@H](CCCCN)C(N)=O | – | mouse, serum | 30 mg/kg | – | Kim-1 level | 81.6 ng/mL |
| COc1cnc2cccc(N3CCc4c(cc(Cn5ccnc5)cc4-c4cn(C)nc4C(F)(F)F)C3=O)c2c1 | – | BALB/c nude mice, MV4-11 xenograft | intraperitoneal, 50 mg/kg, day 31 | – | body weight | 22.4 g and 21.5 g and 22.2 g and 23 g and 23.2 g |
| CC[C@H](C)[C@H](NC(=O)[C@H](CCCCN)NC(=O)CNC(=O)[C@H](CC(C)C)NC(=O)[C@H](Cc1ccccc1)NC(=O)[C@H](CCCCN)NC(=O)[C@H](CO)NC(=O)[C@H](Cc1ccccc1)NC(=O)[C@H](Cc1c[nH]c2ccccc12)NC(=O)[C@H](CCC(N)=O)NC(=O)[C@@H](NC(=O)[C@H](Cc1ccccc1)NC(=O)CCCCCNC(=O)CN1CCN(CC(=O)O)CCN(CC(=O)O)CCN(CC(=O)O)CC1)C(C)C)C(=O)N[C@@H](CCC(=O)O)C(=O)N1CCC[C@H]1C(=O)N[C@@H](CC(=O)O)C(=O)N[C@H](C(=O)N[C@@H](CO)C(=O)N[C@@H](CCC(N)=O)C(=O)N[C@H](C(=O)N[C@@H](CCC(N)=O)C(=O)N[C@@H](CC(=O)O)C(=O)N1CCC[C@H]1C(=O)N[C@@H](CC(N)=O)C(=O)N[C@@H](CC(=O)O)C(=O)N[C@@H](CCC(N)=O)C(=O)N[C@@H](Cc1ccc(O)cc1)C(=O)N[C@@H](CCC(=O)O)C(=O)N1CCC[C@H]1C(=O)N[C@@H](Cc1ccccc1)C(=O)O)C(C)C)C(C)C [copper-64 labelled] | – | C57BL/6 mice, male, tumour-free, kidneys | 24 h | – | tissue uptake | 14.6 ± 3.3 %ID/g |
| CC(C)[C@@H]1NC(=O)CNC(=O)[C@H](CC(N)=O)NC(=O)[C@H](CCCNC(=N)N)NC(=O)[C@H](Cc2ccc(O)cc2)NC(=O)[C@H](C(C)C)NC(=O)[C@@H](NC(=O)[C@@H](NC(=O)[C@H](CC(N)=O)NC(=O)[C@H](Cc2c[nH]c3ccccc23)NC(=O)[C@H](C)NC(=O)[C@H](Cc2ccccc2)NC(=O)CNC(=O)[C@H](CCCCN)NC(=O)[C@H](Cc2ccccc2)NC(=O)[C@H](Cc2ccccc2)NC(=O)[C@H](CCCCN)NC(=O)OCC2c3ccccc3-c3ccccc32)C(C)C)CSSC[C@@H](C(=O)N[C@@H](Cc2c[nH]cn2)C(=O)N[C@@H](CCCNC(=N)N)C(=O)N[C@@H](CCCNC(=N)N)C(=O)N[C@@H](C)C(=O)N[C@@H](CC(N)=O)C(N)=O)NC(=O)[C@H](C(C)C)NC(=O)[C@H](CCCNC(=N)N)NC1=O | – | ICR mouse, blood | intramammary, 5 mg/kg, day 5, 3 d dosing | – | albumin | 35.4 ± 1.21 g/L |
| CC[C@H](C)[C@H](NC(=O)[C@H](CCCN)NC(=O)[C@H](CCCNC(=N)N)NC(=O)[C@@H]1CCCN1C(=O)[C@@H]1CCCN1C(=O)[C@H](CCCNC(=N)N)NC(=O)[C@@H]1CCCN1C(=O)[C@H](CCCNC(=N)N)NC(=O)[C@@H]1CCCN1C(=O)[C@H](CC(C)C)NC(=O)[C@H](Cc1ccc(O)cc1)NC(=O)[C@@H]1CCCN1C(=O)[C@@H]1CCCN1C(=O)[C@H](CCCCN)NC(=O)[C@H](CC(=O)O)NC(=O)[C@@H](N)C(C)C)C(=O)N[C@@H](Cc1ccc(O)cc1)C(=O)N[C@@H](CC(N)=O)C(=O)N[C@@H](CCCN)C(N)=O | cELISA | CD-1 mice, urine | subcutaneous, 4.34 µmol/kg, 1 h | – | total urine concentration | 251 mg/L |
| O=C([O-])CNC(=O)CN1CCN(CC(=O)NCC(=O)[O-])CCN(CC(=O)NCC(=O)[O-])CCN(CC(=O)NCC(=O)[O-])CC1.[177Lu+3] | – | Sprague-Dawley rat, small intestine | intravenous, dose not given, 2 h | – | biodistribution | 0.151 ± 0.013 % injected dose/g |
| C=C/C=C/C[C@@H](C)[C@@H](O)[C@H]1C(=O)N[C@@H](CC)C(=O)N(C)CC(=O)N(C)[C@@H](CC(C)C)C(=O)N[C@@H](C(C)C)C(=O)N(C)[C@@H](CC(C)C)C(=O)N[C@@H](C)C(=O)N[C@H](C)C(=O)N(C)[C@@H](CC(C)C)C(=O)N(C)[C@@H](CC(C)C)C(=O)N(C)[C@@H](C(C)C)C(=O)N1C | – | Wistar Kyoto rat, male, plasma | ip, 0.5 mg/kg/day, day 18 | – | plasma Cl− level | 101 ± 1 mmol/L |
| O=C1NC2(CC2)COc2ncc(F)cc2[C@H]2COCCN2c2ccn3ncc1c3n2 | – | Sprague-Dawley rat, female, spleen | oral, 5 mg/kg/day, 4 weeks dosing, end of recovery | – | organ-to-body weight ratio | 0.257 ± 0.042% |
| Cc1ccccc1-c1ccc(-c2nc(-c3ccc(CN(C)CCCC(=O)O)c([18F])c3)no2)cc1C(F)(F)F | – | rat, brain | 5 min | – | tracer uptake | 0.4 %ID/g |

Excerpt of the above:
| SMILES | assay | test system | setting | scale | endpoint | result |
| --- | --- | --- | --- | --- | --- | --- |
| CC[C@H](C)[C@H](NC(=O)[C@H](CCCN)NC(=O)[C@H](CCCNC(=N)N)NC(=O)[C@@H]1CCCN1C(=O)[C@@H]1CCCN1C(=O)[C@H](CCCNC(=N)N)NC(=O)[C@@H]1CCCN1C(=O)[C@H](CCCNC(=N)N)NC(=O)[C@@H]1CCCN1C(=O)[C@H](CC(C)C)NC(=O)[C@H](Cc1ccc(O)cc1)NC(=O)[C@@H]1CCCN1C(=O)[C@@H]1CCCN1C(=O)[C@H](CCCCN)NC(=O)[C@H](CC(=O)O)NC(=O)[C@@H](N)C(C)C)C(=O)N[C@@H](Cc1ccc(O)cc1)C(=O)N[C@@H](CC(N)=O)C(=O)N[C@@H](CCCN)C(N)=O | cELISA | CD-1 mice, urine | subcutaneous, 4.34 µmol/kg, 1 h | – | total urine concentration | 251 mg/L |
| O=C1NC2(CC2)COc2ncc(F)cc2[C@H]2COCCN2c2ccn3ncc1c3n2 | – | Sprague-Dawley rat, female, spleen | oral, 5 mg/kg/day, 4 weeks dosing, end of recovery | – | organ-to-body weight ratio | 0.257 ± 0.042% |
